Assay results from different studies.
Each numbered part is a random draw from the data of one study; scales do not carry over between parts. Changes are numbered by the printed parent chain.

Block 1
Target: Sal-like protein 4, full length isoform B (SALL4, Homo sapiens, UniProt Q9UJQ4-2, residues 1-616)
Technique: universal PBM
Form: double-stranded DNA, one strand shown
Medium: in vitro
Concentration: not given
Setting: 8-mer, flanks averaged, mean of replicates
Direction: higher = stronger binding
Target sequence (chain): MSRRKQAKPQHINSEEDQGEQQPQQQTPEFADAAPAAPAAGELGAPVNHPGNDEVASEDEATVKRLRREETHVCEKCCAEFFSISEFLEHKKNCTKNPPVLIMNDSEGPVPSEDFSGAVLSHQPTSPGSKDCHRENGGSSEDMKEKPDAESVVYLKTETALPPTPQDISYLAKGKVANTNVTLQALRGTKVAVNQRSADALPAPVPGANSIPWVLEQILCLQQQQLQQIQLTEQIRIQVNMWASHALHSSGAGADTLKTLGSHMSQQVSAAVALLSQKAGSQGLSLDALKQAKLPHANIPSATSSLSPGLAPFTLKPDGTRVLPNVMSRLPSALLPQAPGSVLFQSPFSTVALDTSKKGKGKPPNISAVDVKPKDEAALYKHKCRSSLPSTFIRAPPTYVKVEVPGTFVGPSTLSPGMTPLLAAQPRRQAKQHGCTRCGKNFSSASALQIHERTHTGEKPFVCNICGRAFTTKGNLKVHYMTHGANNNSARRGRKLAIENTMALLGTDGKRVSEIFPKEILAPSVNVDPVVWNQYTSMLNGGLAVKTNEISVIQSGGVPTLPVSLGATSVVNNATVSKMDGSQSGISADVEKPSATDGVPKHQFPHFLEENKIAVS
`CGGAATAC` has an E-score of 0.00108.
`GGACGGCA` has an E-score of -0.203.
`GTGGTATA` gave an E-score of 0.146.
The E-score of `GTACATCA` is reported as 0.159.
The E-score of `CGGCCTCA` is reported as -0.218.
The E-score of `ACTGAGGC` is reported as -0.0347.
`ATTATGGC` gave an E-score of 0.215.
The E-score of `AGTTAAGC` is reported as 0.0388.
For `AGTCAAGA`, the E-score was -0.174.
`AGGCCTTG` has an E-score of -0.264.
For `CGTGGGTA`, the E-score was -0.296.
For `ATCGCTAC`, the E-score was -0.0261.
`CTTCGCCC` gave an E-score of -0.243.

Block 2
Target: RING finger protein unkempt homolog, zinc fingers 1-6, GST-SBP tag (UNK, Homo sapiens, UniProt Q9C0B0, residues 30-357)
Technique: RNA Bind-n-Seq
Form: RNA
Medium: in vitro
Concentration: not given
Setting: RNA with constant flanks, human and mouse sites, ends assumed
Relative to: input RNA pool
Direction: higher = stronger binding
Construct (chain): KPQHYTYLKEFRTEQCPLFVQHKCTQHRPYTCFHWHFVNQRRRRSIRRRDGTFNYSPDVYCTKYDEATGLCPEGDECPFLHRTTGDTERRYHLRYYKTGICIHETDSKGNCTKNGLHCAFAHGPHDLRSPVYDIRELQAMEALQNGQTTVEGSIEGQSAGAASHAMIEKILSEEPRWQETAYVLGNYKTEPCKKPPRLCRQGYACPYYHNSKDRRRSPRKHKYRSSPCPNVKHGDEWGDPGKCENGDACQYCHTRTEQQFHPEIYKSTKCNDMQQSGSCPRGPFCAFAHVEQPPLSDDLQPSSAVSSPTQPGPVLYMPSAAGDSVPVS
For `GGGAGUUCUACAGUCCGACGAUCGGAGCAGAUGCUGAUCUCAUUAUGCUUGGCCUUGCCACACAUGAACCGAACUUUACCAUUAUUAGAGAAGAAUUCAAACCAAACAAGCCCAAACCAUGUGGUCUUUGUAAUCAGUUUGGACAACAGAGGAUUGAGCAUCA`, the bound/input enrichment was 1.13 ratio.
`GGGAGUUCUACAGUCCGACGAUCCCCAUGCCUGGGGUAGCUGGCGGCAGCGGCCAGUCGAAAGUAAUGGCUAACUACAUGUACAAGGCCGGCCCCUCAGCCCAGGGUGGGCACCUAGAUGUCCUCAUGCAGCAAAAGCCUCAGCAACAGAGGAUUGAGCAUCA` gave a bound/input enrichment of 0.0993 ratio.
`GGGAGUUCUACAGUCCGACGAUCUGAAACAGGGAGAGGCUGACACCCCCCCACCCUCCACCCCCGUGUCCACAACCCCCAACCUAGCUGUCUUCUCAGGGCCUGCCACCCAAAUAAGUCUGGCCCUAGCCUCAACUCUCUCUCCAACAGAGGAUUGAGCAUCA` has a bound/input enrichment of 1.32 ratio.
The bound/input enrichment of `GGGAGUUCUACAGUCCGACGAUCUUUGCUGAACUGGAUAAAGUAAUGGGCCCUCUCAUCUUUAAUGCAAGCAUCAUGACAGAUCUAGUUCGUUAUACCCGGCAGGGACUGCACUGGCUUCGCCAGGAUGCCAAGUUGAUAUCUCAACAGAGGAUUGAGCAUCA` is reported as 0.119 ratio.
`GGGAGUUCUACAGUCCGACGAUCAUUUUACUUACAGAACCUCCCAUGAAUCCAACCAAAAACAGAGAGAAGAUUGUAGAGGUAAUGUUUGAAACUUACCAGUUUUCUGGUGUGUAUGUAGCCAUCCAGGCAGUUCUGACUUUGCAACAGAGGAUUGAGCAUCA` has a bound/input enrichment of 0.295 ratio.
For `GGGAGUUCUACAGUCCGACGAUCCUGCUUUUGGUGCUGCCUGUUGUGGAAGCAGUAGAAGCCGGUGAUGCAAUCGCCCUUUUGUUAGGUGUGGUUCUCAGCAUUACAGGCAUUUGUGCCUGCUUGGGGGUAUAUGCACGAAAACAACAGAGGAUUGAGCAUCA`, the bound/input enrichment was 0.183 ratio.
For `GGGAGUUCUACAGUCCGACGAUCUUACAAAGCCAUCUUUACAUGCAUUAAACGAGGGCUACAACAAUAUUGUUUUACAAAUACUAGCACUUUUUUUUCUGUUAUGUACUUAGUGUUAGAGGGUCAAAAUAAUCUUUCUGCUUACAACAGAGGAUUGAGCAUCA`, the bound/input enrichment was 0.949 ratio.

Block 3
Target: UBE2Q2 UBC core domain (UniProt Q8WVN8)
Sequence of UniProt Q8WVN8 (whole entry, looked up): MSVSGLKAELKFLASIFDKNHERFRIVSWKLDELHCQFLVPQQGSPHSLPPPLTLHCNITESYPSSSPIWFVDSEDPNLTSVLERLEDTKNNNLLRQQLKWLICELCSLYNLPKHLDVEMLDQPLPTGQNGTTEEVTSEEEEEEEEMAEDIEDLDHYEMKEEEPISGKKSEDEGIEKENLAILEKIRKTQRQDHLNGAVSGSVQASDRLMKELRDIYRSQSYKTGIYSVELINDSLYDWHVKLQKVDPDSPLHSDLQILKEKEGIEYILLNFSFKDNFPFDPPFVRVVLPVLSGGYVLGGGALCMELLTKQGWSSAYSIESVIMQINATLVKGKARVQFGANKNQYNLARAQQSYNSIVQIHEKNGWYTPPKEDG
Technique: yeast two-hybrid
Medium: yeast
Setting: mostly zero background
Relative to: not given
Direction: higher = stronger interaction
B1: UBE4B RING domain (UniProt O95155); chain KNARAEIDYSDAPDEFRDPLMDTLMTDPVRLPSGTIMDRSIILRHLLNSPTDPFNRQTLTESMLEPVPELKEQIQAWMREKQNSDH
B2: PJA2 RING domain (UniProt O43164); chain DHTAIGQEQCCPICCSEYIKDDIATELPCHHFFHKPCVSIWLQKSGTCPVCRRHFPPAVIEA
B3: TRIM47 RING domain (UniProt Q96LD4); chain MDGSGPFSCPICLEPLREPVTLPCGHNFCLACLGALWPHRGASGAGGPGGAARCPLCQEPFPDGLQLR
B4: TRIM68 RING domain (UniProt Q6AZZ1); chain LVEAIVEEVACPICMTFLREPMSIDCGHSFCHSCLSGLWEIPGESQNWGYTCPLCRAPVQPRNLRP
B5: TRIM2 RING domain (UniProt Q9C040); chain VRQIDKQFLICSICLERYKNPKVLPCLHTFCERCLQNYIPAHSLTLSCPVCRQTSILPEKGV
B6: RNF17 RING domain (UniProt Q9BXT8); chain SQPWGAAEIQCTRCGRRVSRSSGHHCELQCGHAFCELCLLMTEECTTIICPDCEVATAVNTRQR
B7: TRIM28 RING domain (UniProt Q13263); chain GAEALELLEHCGVCRERLRPEREPRLLPCLHSACSACLGPAAPAAANSSGDGGAAGDGTVVDCPVCKQQCFSKDIVE
B8: RNF11 RING domain (UniProt Q9Y3C5); chain RDGSEKKIRECVICMMDFVYGDPIRFLPCMHIYHLDCIDDWLMRSFTCPSCMEPVDAALLSS
B9: NHLRC1 RING domain (UniProt Q6VVB1); chain MREAEISLLECKVCFEKFGHRQQRRPRNLSCGHVVCLACVAALAHPRTLALECPFCRRACRGCDTSD
`B1 (UBE4B RING domain)` — result for “lacZ reporter activity”: 0.
`B2 (PJA2 RING domain)` — result for “lacZ reporter activity”: 0.
`B3 (TRIM47 RING domain)` — result for “lacZ reporter activity”: 0.
Under “lacZ reporter activity”, `B4 (TRIM68 RING domain)` is recorded as 0.
Under “lacZ reporter activity”, `B5 (TRIM2 RING domain)` is recorded as 0.
`B6 (RNF17 RING domain)` — result for “lacZ reporter activity”: 0.
For `B7 (TRIM28 RING domain)`, “lacZ reporter activity” read 0.
Under “lacZ reporter activity”, `PLRRLQEEKLCKICMDRHIAVVFIPCGHLVTCKQCAEAVDRCPMCSAVIDFKQRVF (BIRC8 RING domain (UniProt Q96P09))` is recorded as 0.
Under “lacZ reporter activity”, `B8 (RNF11 RING domain)` is recorded as 0.
Under “lacZ reporter activity”, `GSEEEEIPFRCFICRQAFQNPVVTKCRHYFCESCALEHFRATPRCYICDQPTGGIFNPA (RNF113B RING domain (UniProt Q8IZP6))` is recorded as 0.
Under “lacZ reporter activity”, `B9 (NHLRC1 RING domain)` is recorded as 0.

Block 4
Target: RNA binding protein fox-1 homolog 2, RRM domain, GST-SBP tag (RBFOX2, Homo sapiens, UniProt O43251-10, residues 100-194)
Technique: RNA Bind-n-Seq
Form: RNA
Medium: in vitro
Concentration: 365 nM
Setting: natural RNA segment, single round, ends assumed
Relative to: no-protein control
Direction: higher = stronger binding
For `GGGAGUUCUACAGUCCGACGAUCAUCGUAGAUGUUGUAGACUGAGAUUUGGGACUAUGUUGGGACCGUACAGGUGAAUGUGCCACCUCCACAAAUGGCUUCUCCGAGUGAGUCACGUCACCUGGUGCGUGGAGUGGAAUUCUCGGGUGCCAA`, “RBNS enrichment (R)” read 0.615.
For `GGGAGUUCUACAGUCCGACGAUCGUUAGUCGCUAACUUAGUAAGUGCUUUUCUUAUAGAACCCCUUCUGACUGAGCAAUAUGCCUCCUUGUAUUAUAAAAUCUUUCUGAUAAUGCAUUAGAAGGUUUUUUUGUUGGAAUUCUCGGGUGCCAA`, “RBNS enrichment (R)” read 0.626.
Under “RBNS enrichment (R)”, `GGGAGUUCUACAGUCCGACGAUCCCUGACGGAGCCCCUGGAGGUGGAGCACGUGGUGGGCCAGGGUGUCCUCCACCGUGGCGGCCAGCUGCAUGGAGCCCGGCCCUUGGGCACUGGUGAGCGUUGGAACCUUGUGGAAUUCUCGGGUGCCAA` is recorded as 0.497.
For `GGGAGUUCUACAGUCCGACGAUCAUAACACUAAAUUCUUCCUGAGAAAUGACUCCUCUUGGUUUGGUUUGAAGUUUUUCAGUGAAGGAAAAGGCCUGAGAUAGGAAGCAGUGCCCUCGCUUCAUGAGGUGGCAUGGAAUUCUCGGGUGCCAA`, “RBNS enrichment (R)” read 0.593.
`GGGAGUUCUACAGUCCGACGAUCGCCCUGCCUGAGUUGUGUGCAUCCAGGGGCCUGGUGAGCCCCCAGGCUGGUGGCAUGGCCCCCCUGCCCCGUGCUGAAUGAAUGUACAGAGCCAGACAAAGCUGUGAAUGUGGAAUUCUCGGGUGCCAA`: “RBNS enrichment (R)” 0.392.
Under “RBNS enrichment (R)”, `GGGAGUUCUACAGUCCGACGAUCACAAAAUUAAAUAAACAGAAUGUCCCCAGGAGUCAGCAGGUCACAGUCUGGCUUUGUGAUGGUUGACAAGGUCUAGCUACAUGGGAAAGCCUGAGAAGUCACUUUGGAACUGGAAUUCUCGGGUGCCAA` is recorded as 1.12.
For `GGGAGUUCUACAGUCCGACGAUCCUCUUGCCCCUUGGCAUGUACCCCAAGGCCUGAUGGCCACUGGGCUCAGCCUGUCCCCCACUCCUGCCUGCUUCCCGGUGAGCUGCCCCCCACACGUGCAGCCCGGGCUGUGGAAUUCUCGGGUGCCAA`, “RBNS enrichment (R)” read 1.19.
`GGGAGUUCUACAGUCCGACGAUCUAUCUGAUAUUUUUCCAAAUUAAAUAAGUUAGAGAAUGCAAUCGGCGGAUGUGGGGGCGGCCAUCUGGUAGUGGAAAGCUGUAGCGAUCUGAGUACAGCUUAGAUGUUAGUGGAAUUCUCGGGUGCCAA` — result for “RBNS enrichment (R)”: 3.9.

Block 5
Target: CCNA2, cyclin fold, Cln2 fusion (human)
Technique: yeast growth competition, sequencing
Medium: yeast
Setting: strong parent motif
Relative to: not given
Direction: higher = stronger binding
Starting sequence: SAMHD1 docking peptide (human); ASKSRVQLFKDDP
`R5T`: “normalised enrichment score” -0.14.
`F9Y`: “normalised enrichment score” 0.451.
Under “normalised enrichment score”, `K3G` is recorded as 1.41.
`R5M`: “normalised enrichment score” -0.106.
`Q7I` — result for “normalised enrichment score”: 0.571.
For `K3Y`, “normalised enrichment score” read 0.864.
For `K3C`, “normalised enrichment score” read 1.47.
`D11W`: “normalised enrichment score” 1.01.
`S4I` — result for “normalised enrichment score”: 4.94.
Under “normalised enrichment score”, `D12S` is recorded as 3.24.
`V6H` — result for “normalised enrichment score”: 0.57.
`K10M` — result for “normalised enrichment score”: 2.2.
`F9D`: “normalised enrichment score” 0.0496.
Under “normalised enrichment score”, `K10H` is recorded as 1.35.

Excerpt of the above (block 3):
Under “lacZ reporter activity”, `PLRRLQEEKLCKICMDRHIAVVFIPCGHLVTCKQCAEAVDRCPMCSAVIDFKQRVF (BIRC8 RING domain (UniProt Q96P09))` is recorded as 0.
Under “lacZ reporter activity”, `B8 (RNF11 RING domain)` is recorded as 0.
Under “lacZ reporter activity”, `GSEEEEIPFRCFICRQAFQNPVVTKCRHYFCESCALEHFRATPRCYICDQPTGGIFNPA (RNF113B RING domain (UniProt Q8IZP6))` is recorded as 0.
Under “lacZ reporter activity”, `B9 (NHLRC1 RING domain)` is recorded as 0.
